Results from different studies.
Compare with care: the assays were run in different laboratories. Numbers after ± are the reported error.

CC(=O)N[C@H](C(=O)N[C@H](C(=O)N[C@@H](CCCNC(=N)N)C(=O)N1Cc2ccccc2C[C@H]1C(=O)N[C@@H](Cc1ccccc1)C(N)=O)C1CCCCC1)C(C)C — cytokine level (human PBMC; Bio-Plex multiplex, refers to: IL-2; 500 µg/mL, 24 h): 6.4 ± 2.3 pg/mL
Cc1ccccc1C(c1c[nH]c(=O)[nH]c1=O)c1c[nH]c(=O)[nH]c1=O — cytotoxicity (Ba/F3; 1 µg/mL): not toxic
[99Tc+].[C-]#[N+]CC(C)(C)OC.[C-]#[N+]CC(C)(C)OC.[C-]#[N+]CC(C)(C)OC.[C-]#[N+]CC(C)(C)OC.[C-]#[N+]CC(C)(C)OC.[C-]#[N+]CC(C)(C)OC — basolateral efflux fraction (rat sandwich-cultured hepatocytes; baseline: total efflux): 63.2%
O=C1C[C@H](c2ccc(O)c(O)c2)c2c(cc(O)c3c2O[C@H](c2ccc(O)c(O)c2)[C@H](O)C3)O1 — cytotoxic concentration (rat L6 myotubes; cell viability, MTT; 2% FBS): 10 µg/mL
OC[C@H]1O[C@H](OCCCCCCCCCCC(F)(F)C(F)(F)C(F)(F)C(F)(F)C(F)(F)C(F)(F)F)[C@H](O)[C@@H](O)[C@@H]1O — EC50 (B16-F10; cytotoxicity, MTT; 24 h): 47 µM
Cc1cc(C#N)cc(C)c1Oc1nc(NC2CCN(Cc3ccc(S(C)(=O)=O)cc3)CC2)nc2ccccc12 — CC50 (TZM-bl; cell growth or viability, XTT): > 0.231 µM
F[P-](F)(F)(F)(F)F.F[P-](F)(F)(F)(F)F.[Cu+2].c1ccc(CN2CCCNCCN(Cc3ccccc3)CCCNCC2)cc1 — IC90 (THP-1; cytotoxicity): > 15 µM
C[C@H](CCC=O)[C@@H]1CC[C@]2(C)C3=C(CC[C@@]12C)[C@@]1(C)CC[C@H](O)C(C)(C)[C@@H]1CC3 — inhibition (U-251; cell growth or viability, SRB; 50 µM): 59.8%
CC/C(=C(\c1ccc(O)cc1)c1ccc(OCCN(C)CCOCCOCCOCCN(C)CCOc2ccc(/C(=C(/CC)c3ccccc3)c3ccc(O)cc3)cc2)cc1)c1ccccc1 — cell density (U2OS transfected with ERβ; 10 µM, cytotoxicity): 55%
C=C(c1ccc(C(=O)O)c(F)c1)c1cc2c(cc1C)C(C)(C)C=CC2(C)C — lowest effective concentration (TK6; cytotoxicity, GreenScreen; without S9): 1.06 µg/mL
CC(=O)OC[C@H]1O[C@@H](Sc2sc(C(=O)c3ccc(C)cc3)c(N)c2-c2nc3ccccc3s2)[C@H](OC(C)=O)[C@@H](OC(C)=O)[C@@H]1OC(C)=O — maximum non-toxic concentration (HEp-2; cytotoxicity; 72 h): 90 µg/mL
CC#N.[Cl][Mn-2]([Cl])([Cl])[Cl].[Mn+2].c1ccc(CN2CCCN3CCCN(CCCN(Cc4ccccc4)CC3)CC2)cc1 — IC90 (THP-1; cytotoxicity): 5.9 µM
Nc1ccn([C@@H]2O[C@H](CO)[C@@H](O)[C@H]2F)c(=O)n1 — CC50 (iCell cardiomyocytes; sulforhodamine B; 11 days, galactose medium): > 250 µM
CCOC(=O)c1cc(-c2nc3ccccc3s2)c(=O)n(NS(=O)(=O)c2ccc(Cl)cc2)c1N — maximum non-toxic concentration (HEp-2; trypan blue; 72 h): 130 µg/mL
Cc1cc(C#N)cc(C)c1Oc1nc(NC2CCN(Cc3ccc(Br)cc3)CC2)nc2ccccc12 — CC50 (TZM-bl; cell growth or viability, XTT): > 0.23 µM
O=c1ccn([C@@H]2O[C@H](CO)[C@@H](O)[C@H]2F)c(=O)[nH]1 — CC50 (iCell cardiomyocytes; sulforhodamine B; 11 days, galactose medium): > 250 µM
C=CC(=C)CC[C@]1(C)[C@H](C)C[C@H](O)[C@@]23C(=C[C@H](OC(=O)C(C)C)C[C@@H]12)[C@@H](OC(C)=O)O[C@H]3OC(C)=O — IC50 (KB-VIN (P-gp-overexpressing); cell growth, SRB): 0.98 µM
Cc1ccc(NC(=O)N2CCCN3CCC(c4ccc(C#Cc5cccnc5)cc4)C3C2)cc1 (stereo not shown) — Papp B→A (MDCK-MDR1; Caco-2): 2.49 ×10⁻⁶ cm/s
COC1C=COC2(C)Oc3c(C)c(O)c4c(c3C2=O)C2=NC3(CCN(CC(C)C)CC3)NC2=C(NC(=O)C(C)=CC=CC(C)C(O)C(C)C(O)C(C)C(OC(=O)Nc2cscn2)C1C)C4=O (stereo not shown) — intracellular/extracellular ratio (THP-1 derived macrophages; baseline: intracellular over extracellular): 93

Excerpt of the above:
Cc1cc(C#N)cc(C)c1Oc1nc(NC2CCN(Cc3ccc(S(C)(=O)=O)cc3)CC2)nc2ccccc12 — CC50 (TZM-bl; cell growth or viability, XTT): > 0.231 µM
